Results pooled from the literature.
Parts stem from different laboratories: compare values within a part only.

Block 1 — technique: protein-binding microarray; form: double-stranded DNA, one strand shown; matrix: in vitro; tested at: not given; reading: higher = stronger binding; endpoint: E-score
Target: Cyclic AMP-dependent transcription factor ATF-1 (ATF1, Homo sapiens, UniProt P18846, residues 1-271, full length assumed)
Setting: k-mer, scored over probes, only values ≥0.25
Construct (chain): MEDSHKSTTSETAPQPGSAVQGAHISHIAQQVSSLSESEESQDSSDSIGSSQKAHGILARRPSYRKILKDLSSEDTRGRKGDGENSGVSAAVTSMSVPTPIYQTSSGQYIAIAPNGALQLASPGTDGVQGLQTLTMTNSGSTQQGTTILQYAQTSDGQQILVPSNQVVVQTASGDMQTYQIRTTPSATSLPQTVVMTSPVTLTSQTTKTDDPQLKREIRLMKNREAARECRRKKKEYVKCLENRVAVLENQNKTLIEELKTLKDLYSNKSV
Strand = CCACGTC; value = 0.371
Strand = CCACGTA; value = 0.378
Strand = CAACGTA; value = 0.301

Block 2 — read-out: enzyme activity; mode: inhibitor; tested at: 20 µM; endpoint: inhibition
Target: Replicase polyprotein 1ab, polymerase (rep, Severe acute respiratory syndrome coronavirus 2, UniProt P0DTD1)
SMILES = CCC(CC)[C@H](NC(C)=O)[C@@H]1[C@H](O)[C@@H](C(=O)O)C[C@H]1NC(=N)N; value = -1.7%
SMILES = Oc1cccc(O)c1; value = 0.28%
SMILES = C/C(=C(\CCOP(=O)(O)O)SC(=O)c1ccccc1)N(C=O)Cc1cnc(C)nc1N; value = -3.76%
SMILES = CC(=O)NC1=NN(C(C)=O)C(C)(c2ccccc2)S1 (stereo not shown); value = -4.07%
SMILES = CC[C@@H](c1cccc(O)c1)[C@@H](C)CN(C)C; value = -2.45%
SMILES = CCCCCCCCC(=O)NCc1cc(OC)c(O)cc1I; value = -2.91%
SMILES = Cc1ccccc1N1CCN(CCc2nnc3n2CCCC3)CC1; value = -4.49%
SMILES = CCCn1c(=O)[nH]c2nc(-c3ccc(S(=O)(=O)O)cc3)[nH]c2c1=O; value = 10.1%
SMILES = C[C@]12CCC(=O)C=C1CC[C@@H]1[C@@H]2[C@@H](O)C[C@]2(C)C(=O)CC[C@@H]12; value = -0.26%
SMILES = CO/N=C(\C(=O)N[C@@H]1C(=O)N2C(C(=O)O)=C(COC(C)=O)CS[C@H]12)c1csc(N)n1; value = -1.29%
SMILES = O=C(O)CCC(=O)OC[C@@H](NC(=O)C(Cl)Cl)[C@H](O)c1ccc([N+](=O)[O-])cc1; value = 3.48%
SMILES = CCc1cc2c(c(CC)n1)CCC(=O)N2Cc1ccc(-c2ccccc2-c2nn[nH]n2)cc1; value = 6.36%
SMILES = CC[C@@H](Nc1c(Nc2cccc(C(=O)N(C)C)c2O)c(=O)c1=O)c1ccc(C)o1; value = 2.42%
SMILES = CC(C)n1cnc2c(C(=O)N[C@H]3CN4CCC3CC4)cc(Cl)cc21; value = -6.41%
SMILES = COc1ccc(O)c(C(C)(C)C)c1; value = 2.47%
SMILES = C[C@@H](N)[C@@H](O)c1ccccc1; value = 25.2%
SMILES = Cc1cccc(C)c1NC(=O)c1ccc(N)cc1; value = -0.64%
SMILES = C[C@H](O)[C@H](O)[C@H]1CNc2nc(N)[nH]c(=O)c2N1; value = -2.23%
SMILES = CC(=O)Nc1ccccc1; value = 18.6%
SMILES = Cc1nc(Nc2ccc(F)cc2)nc(N2CCc3ccccc3C2C)c1C (stereo not shown); value = 13.4%
SMILES = CNC(=O)[C@@H](Cc1ccccc1)N(C)C(=O)[C@@H](Cc1ccc2ccccc2c1)N(C)C(=O)/C=C/CC(C)(C)N; value = 9.35%
SMILES = C[C@H](N)C(=O)O; value = -1.44%
SMILES = CNC(=C[N+](=O)[O-])NCCSCc1ccc(CN(C)C)o1; value = 44%
SMILES = NS(=O)(=O)c1cc2c(cc1C(F)(F)F)NCNS2(=O)=O; value = 22.4%
SMILES = CC(/C=C1\SC(=S)N(CC(=O)O)C1=O)=C\c1ccccc1; value = 0.29%

Block 3 — cell line: HEK-293T/ACE2; tested at: concentration not given; time: 16 (unit not given); reference: vehicle; endpoint: viability
Structure (SMILES) = CN(CCOc1ccc(CC2SC(=O)NC2=O)cc1)c1ccccn1 (stereo not shown); value = 102%
Structure (SMILES) = O=C1c2c(O)ccc(O)c2C(=O)c2c(NCCNCCO)ccc(NCCNCCO)c21; value = 72.9%
Structure (SMILES) = CC1(C)O[C@@H]2C[C@H]3[C@@H]4C[C@H](F)C5=CC(=O)C=C[C@]5(C)[C@H]4[C@@H](O)C[C@]3(C)[C@]2(C(=O)CO)O1; value = 106%

Block 4 — technique: RNAcompete; form: RNA; matrix: in vitro; tested at: 20 nM; setting: 7-mer, probes averaged, single round; reference: mean of 7-mers; reading: higher = stronger binding; endpoint: 7-mer Z-score
Target: PABPC1L2, full length, GST fusion (mouse, UniProt A0ABA7IW68)
Construct (chain): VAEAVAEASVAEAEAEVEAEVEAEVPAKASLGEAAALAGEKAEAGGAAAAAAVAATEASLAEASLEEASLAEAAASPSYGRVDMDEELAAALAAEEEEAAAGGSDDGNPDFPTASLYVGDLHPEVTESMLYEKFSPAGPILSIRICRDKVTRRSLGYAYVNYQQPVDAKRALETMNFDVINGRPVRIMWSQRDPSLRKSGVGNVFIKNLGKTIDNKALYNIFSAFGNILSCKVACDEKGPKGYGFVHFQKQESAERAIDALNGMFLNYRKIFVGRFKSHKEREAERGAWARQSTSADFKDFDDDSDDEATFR
Strand = UGAUGCG; value = -0.182
Strand = AGAUGGU; value = -0.211
Strand = UUAUAAA; value = 1.23
Strand = UGCUUAC; value = -0.161
Strand = GAGCCUC; value = -0.458

Block 5 — technique: RNA Bind-n-Seq; form: RNA; matrix: in vitro; tested at: 200 nM; setting: whole 134-nt RNA, ends assumed; together with: 150 mM KCl; reference: input library; reading: higher = stronger binding; endpoint: log2 enrichment
Target: Fragile X messenger ribonucleoprotein 1, C-terminal low-complexity region (Fmr1, Mus musculus, UniProt P35922)
All sequences stand within: GGGAGUUCUACAGUCCGACGAUC … UGGAAUUCUCGGGUGUCAAGG
Strand = AAGUCCUGUGCUACACAUCGUAUGUACCGAAUCGGGUUUGGGGUUUGGGUUUGGGGAAAGUAUUAUGUUACGCCGUUCGGAUCUGCACUU; value = 0.877
Strand = UAACUUUAGAGGAGGAUCUGAUGGUUAUGGCAGUGGACGUGGAUUUGGGGAUGGCUAUAAUGGGUAUGGAGGAGGACCUGGAGGUGGCAA; value = 0.329
Strand = AGUCCUGUGCUACACAUCGUAUGUACCGAAUCGGGGAGGGGUUUUUUUGGGGUGGGGAAAGUAUUAUGUUACGCCGUUCGGAUCUGCACU; value = 1.14
Strand = UAACUUUAGAGGAGGAUCUGAUGGAUAUGGCAGUGGACGUGGAUUUGGGGAUGGCUAUAAUGGGCAUGGAGGAGGACCUGGAGGUGGCAA; value = 0.154
Strand = UCCUGUGCUACACAUCGUAUGUACCGAAUCGGGGUUUUUUGGUUUUUUGGUUUUUUGGGAAAGUAUUAUGUUACGCCGUUCGGAUCUGCA; value = -0.304
Strand = AGUCCUGUGCUACACAUCGUAUGUACCGAAUCGGAAAAAGGAAAAAGGAAAAAAAGGAAAGUAUUAUGUUACGCCGUUCGGAUCUGCACU; value = -0.914
Strand = CCUCAAGUCCUGUGCUACACAUCGUAUGUACCGAAUCGGGUGGGUGGGUGGGGAAAGUAUUAUGUUACGCCGUUCGGAUCUGCACUUCCA; value = 1.03
Strand = CCUCAAGUCCUGUGCUACACAUCGUAUGUACCGAAUCGGGGCCGGCCGGCCGGAAAGUAUUAUGUUACGCCGUUCGGAUCUGCACUUCCA; value = -0.181

Block 6 — technique: protein-binding microarray; form: double-stranded DNA, one strand shown; matrix: in vitro; tested at: 0.8 µM; setting: whole 60-bp probe, no competitor; reading: higher = stronger binding; endpoint: fluorescence intensity; all sequences stand within: … GTCTTGATTCGCTTGACGCTGCTG
Target: Centromere-binding protein 1, full length, N-terminal tag (CBF1, Saccharomyces cerevisiae, UniProt P17106, residues 1-351)
UniProt P17106, sequence (whole entry, looked up): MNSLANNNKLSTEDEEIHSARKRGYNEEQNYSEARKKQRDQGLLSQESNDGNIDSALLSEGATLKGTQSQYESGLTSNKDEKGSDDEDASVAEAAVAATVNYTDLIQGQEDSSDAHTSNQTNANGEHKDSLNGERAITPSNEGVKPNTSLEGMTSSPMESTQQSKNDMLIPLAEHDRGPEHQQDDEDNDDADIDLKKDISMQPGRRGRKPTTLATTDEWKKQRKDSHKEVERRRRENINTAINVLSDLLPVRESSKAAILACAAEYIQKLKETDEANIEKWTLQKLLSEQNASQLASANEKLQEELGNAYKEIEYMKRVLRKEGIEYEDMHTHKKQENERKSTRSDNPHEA
Strand = CTAACCACTCGATACCCCATCACCTGCATAATTTTC; value = 1090 a.u.
Strand = CCTAACTACTATAGTTCTGATGCATAGCTTCGTACA; value = 489 a.u.
Strand = CTAATATACTAGTATCACGAATATTACTAAATGTTC; value = 514 a.u.
Strand = CTAACACAAAATATACTCGTGCATTGAAGATGCTTC; value = 604 a.u.
Strand = GAATAAGGGAGGCGGCTGATGTCCATCAACCGCTAG; value = 491 a.u.
Strand = CTATAAATAAGAGGGTACGTGATTATAAACAGATTC; value = 956 a.u.
Strand = GAATCATGGAAGTGGCACGTTTGTGCTTCGGCGTAG; value = 562 a.u.
Strand = GAAAGGAGAAAGTACTACACGTGTTTTCAGACCTAG; value = 3850 a.u.

Block 7 — read-out: enzyme activity; mode: inhibitor; tested at: 20 µM; endpoint: inhibition
Target: Replicase polyprotein 1ab, main protease (rep, Severe acute respiratory syndrome coronavirus 2, UniProt P0DTD1)
SMILES = CC[N+](C)(CC)CCC[n+]1c(-c2ccccc2)c2cc(N)ccc2c2ccc(N)cc21; value = 56%
SMILES = O=C1C=CC(=O)C2=C1C1c3ccccc3C2c2ccccc21; value = -14.3%
SMILES = Oc1ccc2ccccc2c1SSc1c(O)ccc2ccccc12; value = -61.1%

For quick reference, copied from above (block 6):
Strand = CTAATATACTAGTATCACGAATATTACTAAATGTTC; value = 514 a.u.
Strand = GAAAGGAGAAAGTACTACACGTGTTTTCAGACCTAG; value = 3850 a.u.
Strand = GAATCATGGAAGTGGCACGTTTGTGCTTCGGCGTAG; value = 562 a.u.
Strand = CTAACACAAAATATACTCGTGCATTGAAGATGCTTC; value = 604 a.u.
Strand = CTATAAATAAGAGGGTACGTGATTATAAACAGATTC; value = 956 a.u.
Strand = GAATAAGGGAGGCGGCTGATGTCCATCAACCGCTAG; value = 491 a.u.
